Published values of several laboratories.
Numbered parts are unrelated; each lists some results of a single study. Changes are numbered by the printed parent chain.

Study 1
Target: Histone acetyltransferase KAT6A, winged helix 2, GST fusion (KAT6A, Homo sapiens, UniProt Q92794, residues 85-181)
Method: protein binding microarray
Form: double-stranded DNA, one strand shown
Matrix: in vitro
Tested at: not given
Notes: 8-mer, flanks averaged, mean of 2 arrays, mostly near background
Baseline: not given
Direction: higher = stronger binding
Residues (chain): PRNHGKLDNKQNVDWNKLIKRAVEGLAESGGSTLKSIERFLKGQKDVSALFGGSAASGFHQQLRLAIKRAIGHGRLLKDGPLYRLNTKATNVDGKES
Sequence	E-score
GCGCTAAC	-0.00322
GGCACGCA	0.172
ACCGACGT	0.0478
ATCCTGTC	0.0671
ACCGAGTA	-0.0167
CAACTGTG	-0.0175
AGTGTGCG	-0.0833
AGTATGAC	-0.148
TCGGCCAA	0.201

Study 2
Target: Prothrombin, mature alpha-thrombin (F2, Homo sapiens, UniProt P00734)
Method: aptamer microarray, sandwich
Form: DNA with 2'F-ANA
Matrix: in vitro
Tested at: 200 nM
Notes: whole 15-mer aptamer, many near background
Added: Cy3 exosite-II aptamer, 400 nM
Direction: higher = stronger binding
Sequence: GGTTGGTGTGGTTGG
Modification	mean fluorescence intensity
2'F-ANA at 1 2 4 6 7 10 15	58.8 a.u.
2'F-ANA at 1 2 5 6 10 12 14 15	50.5 a.u.
2'F-ANA at 1 2 3 5 6 9 10 12 13 14	47.1 a.u.
2'F-ANA at 1 2 4 8 10 11 13 14 15	49.2 a.u.
2'F-ANA at 2 3 4 6 7 8 9 12 15	745 a.u.
2'F-ANA at 2 4 5 6 7 8 11 12 14 15	48.2 a.u.
2'F-ANA at 2 5 6 7 8 10 12 14	68 a.u.
2'F-ANA at 1 2 4 8 10 11 13 14	55.1 a.u.
2'F-ANA at 1 3 4 6 10 11 12 14	53.3 a.u.
2'F-ANA at 2 3 6 7 8 9 10 11 12 13 14 15	250 a.u.
2'F-ANA at 1 3 4 8 12 13 15	372 a.u.

Study 3
Target: CCNE1, cyclin fold, Cln2 fusion (human)
Method: yeast growth competition, sequencing
Matrix: yeast
Notes: strong parent motif
Baseline: not given
Direction: higher = stronger binding
Starting sequence: RBL1 docking peptide (human); GSAKRRLFGEDPP; partner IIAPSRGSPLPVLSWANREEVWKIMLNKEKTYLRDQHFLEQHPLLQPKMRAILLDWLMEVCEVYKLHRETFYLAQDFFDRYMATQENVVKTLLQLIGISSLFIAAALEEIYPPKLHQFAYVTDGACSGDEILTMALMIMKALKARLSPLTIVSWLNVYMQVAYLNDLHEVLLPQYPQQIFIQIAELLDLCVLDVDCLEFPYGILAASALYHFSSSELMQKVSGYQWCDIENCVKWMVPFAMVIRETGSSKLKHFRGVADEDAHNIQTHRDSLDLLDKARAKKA
Change	normalised enrichment score
GSAKRRLFGEWPP [D11W]	4.3
RSAKRRLFGEDPP [G1R]	6.91
LSAKRRLFGEDPP [G1L]	7.7
GSAKARAFGEDPP [R5A L7A]	-0.303
GSAKRRLWGEDPP [F8W]	3.43
GSAFRRLFGEDPP [K4F]	3
GSAKCRLFGEDPP [R5C]	0.58
GSAKQRLFGEDPP [R5Q]	0.188
GSAKRRLFGEVPP [D11V]	5.06
GPAKRRLFGEDPP [S2P]	4.53
GSAKRRLFHEDPP [G9H]	7.02
GSAKRRLFGESPP [D11S]	6.17
GSAKRRLFGEDDP [P12D]	6.12

Other studies, line by line
Molecule	target	assay	system	setting	scale	measurement	result
PhoQ, residues 284 288 289 292 302 303 SSCCRF	PhoP, residues 12 14 15 18 19 HEGLL (Escherichia coli, UniProt P23836)	Sort-seq, measured: YFP reporter	E. coli	PhoQ-PhoP variant library, added: 10 µM Mg2+	baseline: high Mg2+ state, higher = stronger signaling	fold induction	18.3

Excerpt of the above (study 1):
Sequence	E-score
CAACTGTG	-0.0175
ACCGAGTA	-0.0167
TCGGCCAA	0.201
ATCCTGTC	0.0671
GCGCTAAC	-0.00322
